{"data": "Measured values pooled from the literature", "note": "Numbered parts are unrelated; each lists some results of a single study. Positions count from the first letter of the parent shown."}
{"data": "Study 1", "target": "ABI1, truncated, D143A, DHFR fusion (Arabidopsis thaliana)", "method": "DHFR PCA, deep sequencing", "medium": "yeast", "notes": "methotrexate growth selection, single substitutions", "with": "(+)-ABA 17 µM", "baseline": "wild-type fitted maximum", "direction": "higher = stronger binding", "parent": "PYL1, truncated, DHFR fusion (Arabidopsis thaliana); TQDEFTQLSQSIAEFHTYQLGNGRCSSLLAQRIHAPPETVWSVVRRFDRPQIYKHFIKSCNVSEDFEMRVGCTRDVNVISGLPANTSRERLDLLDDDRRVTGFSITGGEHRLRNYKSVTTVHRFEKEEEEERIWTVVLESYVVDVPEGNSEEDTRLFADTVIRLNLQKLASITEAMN"}
{"Change": "S27V", "relative binding score": "-5.53%"}
{"Change": "T6D", "relative binding score": "84.9%"}
{"Change": "N22L", "relative binding score": "79.7%"}
{"Change": "T101S", "relative binding score": "59%"}
{"Change": "T135K", "relative binding score": "-13.1%"}
{"Change": "L169G", "relative binding score": "-0.997%"}
{"Change": "S11V", "relative binding score": "85.8%"}
{"Change": "F157D", "relative binding score": "-2.9%"}
{"Change": "L29D", "relative binding score": "0.615%"}
{"Change": "N22Y", "relative binding score": "78.4%"}
{"Change": "E14N", "relative binding score": "62.2%"}
{"Change": "A30G", "relative binding score": "72%"}
{"Change": "Q19A", "relative binding score": "85.1%"}
{"Change": "I133H", "relative binding score": "89.1%"}
{"data": "Study 2", "target": "XBP1, bZIP domain (human)", "method": "DHFR protein complementation", "medium": "yeast", "notes": "single substitutions, most at no-binding floor", "baseline": "wild-type JUN-FOS pair", "direction": "higher = stronger binding", "parent": "JUN, bZIP domain (human); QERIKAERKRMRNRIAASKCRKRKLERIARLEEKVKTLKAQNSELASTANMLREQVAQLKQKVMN; partner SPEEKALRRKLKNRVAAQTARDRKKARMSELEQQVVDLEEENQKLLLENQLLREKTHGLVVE"}
{"Change": "Q55Y", "binding fitness [natural log]": -0.909}
{"Change": "Q41G", "binding fitness [natural log]": -1.36}
{"Change": "N42Y", "binding fitness [natural log]": -1.47}
{"Change": "T48Y", "binding fitness [natural log]": -1.37}
{"Change": "T48I", "binding fitness [natural log]": -0.892}
{"Change": "V56Q", "binding fitness [natural log]": -1.24}
{"Change": "A49Q", "binding fitness [natural log]": -0.51}
{"Change": "T37C", "binding fitness [natural log]": -0.737}
{"Change": "Q41D", "binding fitness [natural log]": -1.25}
{"Change": "L38K", "binding fitness [natural log]": -1.49}
{"Change": "L31A", "binding fitness [natural log]": -1.49}
{"Change": "T48Q", "binding fitness [natural log]": -0.446}
{"Change": "L45F", "binding fitness [natural log]": -1.52}
{"Change": "R30T", "binding fitness [natural log]": -0.478}
{"Change": "L59T", "binding fitness [natural log]": -0.714}
{"Change": "T37R", "binding fitness [natural log]": -0.712}
{"Change": "L52F", "binding fitness [natural log]": -1.5}
{"Change": "E32F", "binding fitness [natural log]": -1.51}
{"Change": "R53T", "binding fitness [natural log]": -1.48}
{"Change": "M51N", "binding fitness [natural log]": -0.91}
{"Change": "R53W", "binding fitness [natural log]": -1.5}
{"Change": "S43M", "binding fitness [natural log]": -0.554}
{"Change": "L52Y", "binding fitness [natural log]": -1.37}
{"Change": "E33F", "binding fitness [natural log]": -1.29}
{"Change": "K36Q", "binding fitness [natural log]": -0.754}
{"data": "Study 3", "target": "CCND1, cyclin fold, Cln2 fusion (human)", "method": "yeast growth competition, sequencing", "medium": "yeast", "notes": "weak parent motif", "baseline": "not given", "direction": "higher = stronger binding", "parent": "PLK5 docking peptide (human); IFRKVGQRLLTQC"}
{"Change": "IFRKVGQRLLTAC [Q12A]", "normalised enrichment score": 0.392}
{"Change": "IFRKVGQRLLTQA [C13A]", "normalised enrichment score": 0.785}
{"Change": "IFRKAGQRLLTQC [V5A]", "normalised enrichment score": 0.28}
{"Change": "IFRAVGQRLLTQC [K4A]", "normalised enrichment score": 0.447}
{"Change": "IFRKVGQALLTQC [R8A]", "normalised enrichment score": 0.403}
{"Change": "IFRKVGARLLTQC [Q7A]", "normalised enrichment score": 0.474}
{"Change": "IFRKVGQRLATQC [L10A]", "normalised enrichment score": 0.47}
{"data": "Study 4", "target": "RING finger protein unkempt homolog, zinc fingers 1-6, GST-SBP tag (UNK, Homo sapiens, UniProt Q9C0B0, residues 30-357)", "method": "RNA Bind-n-Seq", "form": "RNA", "medium": "in vitro", "concentration": "not given", "notes": "RNA with constant flanks, human-mouse chimeric sites, ends assumed", "baseline": "input RNA pool", "direction": "higher = stronger binding", "shared flanks, not repeated": "GGGAGUUCUACAGUCCGACGAUC … CAACAGAGGAUUGAGCAUCA", "Residues (chain)": "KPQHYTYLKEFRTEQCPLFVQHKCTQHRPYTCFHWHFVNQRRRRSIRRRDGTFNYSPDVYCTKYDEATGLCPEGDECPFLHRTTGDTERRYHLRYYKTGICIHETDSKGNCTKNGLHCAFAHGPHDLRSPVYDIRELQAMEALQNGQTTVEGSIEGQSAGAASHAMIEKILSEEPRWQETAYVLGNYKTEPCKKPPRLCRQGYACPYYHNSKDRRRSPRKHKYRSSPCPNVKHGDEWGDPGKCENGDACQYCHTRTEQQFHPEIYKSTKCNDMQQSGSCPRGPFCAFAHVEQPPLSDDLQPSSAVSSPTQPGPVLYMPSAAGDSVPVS"}
{"Oligonucleotide": "ACUCUUGACUCUUUCCAUCCUCUUCCUUUCCCUCUUGAUAUUCAAGGCCAUGAAUCCCAAAAUAACAAUCUAUCUUAGAGGCUAGCAAACAGAGGUGGAAUAAAUCCACCCCAGUGUCUC", "bound/input enrichment": "0.568 ratio"}
{"Oligonucleotide": "UUGUCGAAGACUCAACGAAAGACUCCAACCGUUAUUCAUAAACAUUAUCAAAUUCAUCGGAUUCGACAUUUUUAUAUGAGAAAAGUCAAAUUUACUCAACAGAAUUACCAUGACAGACUG", "bound/input enrichment": "0.497 ratio"}
{"Oligonucleotide": "UUUCUACUGCAGCAAACGAUGCUAAGAAUUAAGGAUCCUAAGAAGUCCCUGGAUUUUUAUACGAGGGUUCUUGGAAUGACCCUCCUGCAGAAGCUUGACUUCCCUGCUAUGAAGUUUUCG", "bound/input enrichment": "0.107 ratio"}
{"Oligonucleotide": "AGCACAACCCCAGCAAAGCUAAGAAAUCCUUGCACAAGUGAACAAAACUGCACCAGCCCAUUUAGCUACAAAAAUGUGCUUAGUCUUACUGACAGAGGAGAAGUAUUCAAUGAACUUGUU", "bound/input enrichment": "0.695 ratio"}
{"Oligonucleotide": "AGAGCCCAGGAUGUUGAUGCUACAAAUCCAAAUUACGAAAUUAUGUGUAUGAUCAGAGACUUCAGAGGGAGCUUGGAUUACAGACCCUUAACAACAGCAGAUCCUAUUGAUGAACAUAGG", "bound/input enrichment": "0.446 ratio"}
{"Oligonucleotide": "GCCACCAAUUCCAGCCAACAUGACCCUUGCUGCCUACAAAGAGAAGAUGAAGGAGCUCCCGCUGGUGUCCUUGUUCUGCUCCUGCUUCCUGGCCGAUCCCCUGAAUAAAUCAUCCUACAA", "bound/input enrichment": "0.432 ratio"}
{"Oligonucleotide": "GGGGAGAAACCUUACGAGUGUGUGCAGUGUGGGAAAUCCUACAGUCAGAGCUCAAACCUUUUUAGACAUCAGAGAAGACACAAUGCAGAAAAACUUUUGAAUGUUGUGAAGGUUUAAGAA", "bound/input enrichment": "0.383 ratio"}
{"Oligonucleotide": "GUUGCCAGCUUCCGGUUCCGUUGGGCUCGGUUCUCUCCUGAGCUACGUGUCUCUACGCUCUCAAUCCGCCAUCCAACGGCAGUCAUGCAGGUAAUGCAGUUUGUGGAGCCCAGCCGGCAG", "bound/input enrichment": "0.0701 ratio"}
{"Oligonucleotide": "UAUAUCACCAAUGUCCUACAAAAUCCUGACUUGGCUCUGAGAAUGGCUGUACGUAAUAACUUAGCUGGUGCUGAAGAACUCUUUGCCCGGAAAUUUAAUGCUCUCUUCGCCCAGGGAAAC", "bound/input enrichment": "0.557 ratio"}
{"Oligonucleotide": "AGAGCCCAGGACGUUGAUGCUACAAAUCCAAAUUACGAAAUUAUGUGUAUGAUCAGAGACUUUAGAGGGAGCUUGGAUUACAGACCCCUAACAACAGCAGAUCCUAUUGAUGAACAUAGG", "bound/input enrichment": "0.588 ratio"}
{"Oligonucleotide": "GCGGCAGAAUCAUGGAGGACAUAAUGCAGCUCCCCAAGUCGCGCAUCAACGCCAGCAUGUUACCACAGUAUAUCGACCGGCCCGUGUGCUUCGUGGGGAAGCUGGAAAAGAUUCAUCCCA", "bound/input enrichment": "0.0887 ratio"}
{"data": "Study 5", "target": "RNA binding protein fox-1 homolog 2, RRM domain, GST-SBP tag (RBFOX2, Homo sapiens, UniProt O43251-10, residues 100-194)", "method": "RNA Bind-n-Seq", "form": "RNA", "medium": "in vitro", "concentration": "365 nM", "notes": "natural RNA segment, single round, ends assumed", "baseline": "no-protein control", "direction": "higher = stronger binding", "shared flanks, not repeated": "GGGAGUUCUACAGUCCGACGAUC … UGGAAUUCUCGGGUGCCAA", "Target sequence (chain)": "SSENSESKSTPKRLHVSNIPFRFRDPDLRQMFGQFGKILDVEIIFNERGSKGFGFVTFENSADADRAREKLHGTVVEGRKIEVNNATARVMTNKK"}
{"Oligonucleotide": "UCCCUUCUGAAGCAGAGAAGCCUCCAUGGUCACGAAGCAGCGUUGUGCUGUGUGUCCCUCGCAAGAAGCACAGGAAAGAGAAGUUUCUUUAGUAGCCACUAGACAACCAC", "RBNS enrichment (R)": 0.289}
{"Oligonucleotide": "UCAGUAGCCUUAUCCUGUUGGUGGAAUACUGUACCAUAUGCUCCUCCAAAACCCAUGAACACGGCCAAAACCCAUAAAAACAACAAAAGCAAACUAAGUCAAGAACCGUA", "RBNS enrichment (R)": 0.409}
{"Oligonucleotide": "CUUGCCUUCUGAAGUGGCACAAACCUGUGUUUAUAUAUUUAAAAGAUACUCUAGGAUGAUCACUUGUGCUUAGCUUAGCAUUGUAACUCUUUAAGUCUAUAUUUUCCUCA", "RBNS enrichment (R)": 0.435}
{"Oligonucleotide": "GCAGGAAAAUUUGAAAGGGUUUGAAAUGCCCUGAAAUCAGGGCAAGUACUUAAUGGGGAAAAAAAAGCAGAAAUGUCAACAUUUGACCAAAUUAACACUACCUCCUCCCC", "RBNS enrichment (R)": 0.426}
{"Oligonucleotide": "UCUUAGUCAGUUUUUAGGGGACCUCGGGGGUGGGGUAUAUAGGUAAUAUACAGAGCAUUUUGACUUCUAAAUAGUUAGAUCCAGAGAUGAAGUGCACUGUUCUCUCUUCA", "RBNS enrichment (R)": 0.784}
{"Oligonucleotide": "CAGAUUCCCUGGAAUCCUUGGUUCAGGAAGGUGCUUGGGAAAGGGGUGUAGCCAGAAUAUUUUUUCCCUGCAAGCCCUAUGGGGUAGUAUCUAAUAAAUAUUCUGAGCAA", "RBNS enrichment (R)": 0.497}
{"Oligonucleotide": "GAUCAGUUGACAGUGGCAAUAAACUGUAAAUAACUUGCCCUGGGGGCCUUUUUUUAAAAAACAAAACAAAUUCCCAAACCAUACUUGCUAAAAGUUCUGGUAAGUAUGUG", "RBNS enrichment (R)": 0.474}
{"Oligonucleotide": "UCUUCAUCGGUUGGAUUGGAUGCUUACAGGGUUUUUCUUGUAACAUUUAUAAGUGCUGCUUACAUCACUGAACAACAACAAAAAAAUAAUAAUGGAGUAGCUGUUGCCCU", "RBNS enrichment (R)": 0.289}
{"Oligonucleotide": "UCUCACUUUCCUCAUUGGCUUAUUAAUUAGCUCCUUACUUUGUUGCCUUUGCUUCAAAUGGUUUGAGUCACCAACAGACUUGUUUGGGAGUGGCCUCAGUAAAUGACAGA", "RBNS enrichment (R)": 0.418}
{"Oligonucleotide": "CUGAAAGGCUUUGGCCUUCCUCAGUGAGCCCUGGAGGGGUUGGCCUUCUCUCCUCCCUGCCUAGAUCAGUCCUUCUCCAAAAGGACCUGGGAGCUGGCAGCCUGGGCAGG", "RBNS enrichment (R)": 0.315}
{"Oligonucleotide": "CAGGUAUUUUUCCCUUUGCAUUUUUAAAAAUACGUAUUUCUAAUUUGUUUGCAUAUUUAAUUUUGUCAAAGCUGAGAAAUGCUCAUGAGUUGAAUUUAUAAAUGUCAUUU", "RBNS enrichment (R)": 1.25}
{"Oligonucleotide": "AGUAUUGAAUGUACUUUGUAUAAUUUUAGUGGAAUUGUUAUUGAGAAUAAAAUUUUUACAAUCAUAACUGGCUUUUUCCAAGUAACUAGCUGCAGACUCUGAUGAAAGAA", "RBNS enrichment (R)": 0.784}
{"note": "Repeated from above (study 3):"}
{"Change": "IFRKAGQRLLTQC [V5A]", "normalised enrichment score": 0.28}
{"Change": "IFRAVGQRLLTQC [K4A]", "normalised enrichment score": 0.447}
{"Change": "IFRKVGQALLTQC [R8A]", "normalised enrichment score": 0.403}
{"Change": "IFRKVGARLLTQC [Q7A]", "normalised enrichment score": 0.474}
{"Change": "IFRKVGQRLATQC [L10A]", "normalised enrichment score": 0.47}
